Experimental data gathered from unrelated publications.
A part holds a random share of what one study measured.

Sample 1
Target: Phosphate system positive regulatory protein PHO4, full length, GST-tagged (PHO4, Saccharomyces cerevisiae, UniProt P07270, residues 1-312)
Technique: competition protein-binding microarray
Form: double-stranded DNA, one strand shown
Medium: in vitro
Tested at: 2 µM
Setting: whole 60-bp probe, lowest competitor level
Added: Cbf1 competitor, 0.05 µM
Direction: higher = stronger binding
Construct (chain): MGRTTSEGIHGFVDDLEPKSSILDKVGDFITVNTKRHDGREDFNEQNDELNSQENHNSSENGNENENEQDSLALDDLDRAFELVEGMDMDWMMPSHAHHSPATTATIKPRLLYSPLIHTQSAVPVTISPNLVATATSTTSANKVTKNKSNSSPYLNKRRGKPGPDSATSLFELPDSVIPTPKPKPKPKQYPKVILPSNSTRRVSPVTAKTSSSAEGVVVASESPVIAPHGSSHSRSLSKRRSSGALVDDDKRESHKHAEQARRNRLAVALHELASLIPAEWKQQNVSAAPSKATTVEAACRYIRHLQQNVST
For `CTCTGAGCACTCCATCACCTGAGTTAGGTAATACATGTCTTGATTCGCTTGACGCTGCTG`, the fluorescence intensity was 4560 a.u.
`ACAGGCTTTTACCATCACCTGAGCAGCAGCAAGAAAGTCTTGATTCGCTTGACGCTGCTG` has a fluorescence intensity of 4060 a.u.
`GTCTTGTCTCATTGCGACGTGGGTGTCCCCACTTCAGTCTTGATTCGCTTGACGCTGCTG` gave a fluorescence intensity of 6980 a.u.
`CTGGGTCCGTTACGATTCGTGCTTTAAGAGGTTTAAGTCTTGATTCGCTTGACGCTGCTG` has a fluorescence intensity of 5660 a.u.
`TCTTCGTTGTCTACCCACGCTCTTCCGGACCCTCTTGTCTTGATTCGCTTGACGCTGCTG` has a fluorescence intensity of 8520 a.u.
`AGATGAGCGCTCAATCTCGTGAAGGCTATGTGTAGTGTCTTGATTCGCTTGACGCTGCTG` has a fluorescence intensity of 5950 a.u.
`AGTAATTGTACGATGCACGTGCAAAAAAAGTGCTCAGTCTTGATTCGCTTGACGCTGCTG` has a fluorescence intensity of 16100 a.u.
`GGTCTTCTTGTTTTTCACCTGCTCGACAGCTCTTTGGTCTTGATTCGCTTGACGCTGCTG` has a fluorescence intensity of 3960 a.u.
With `TGCGTTTTGGTCTACGATGTGACAGTTGCCAGTTCCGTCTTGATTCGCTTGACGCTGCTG` the fluorescence intensity was 3560 a.u.
The fluorescence intensity of `TGCTCCACCGGCCAACACGTGGAAGTCGCAATTATAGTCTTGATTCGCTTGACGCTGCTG` is reported as 15700 a.u.
`CGTCCTAGTGATTTTCACGTGCGGTCCATGAGGAAGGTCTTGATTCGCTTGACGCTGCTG` gave a fluorescence intensity of 13800 a.u.
For `ATATCTTCTAAATCGCACGGGTTCAAGATCGCAAAAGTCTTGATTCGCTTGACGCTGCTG`, the fluorescence intensity was 9270 a.u.

Sample 2
Target: RNA binding protein fox-1 homolog 2, RRM domain, GST-SBP tag (RBFOX2, Homo sapiens, UniProt O43251-10, residues 100-194)
Technique: RNA Bind-n-Seq
Form: RNA
Medium: in vitro
Tested at: 365 nM
Setting: natural RNA segment, single round, ends assumed
Relative to: no-protein control
Direction: higher = stronger binding
Construct (chain): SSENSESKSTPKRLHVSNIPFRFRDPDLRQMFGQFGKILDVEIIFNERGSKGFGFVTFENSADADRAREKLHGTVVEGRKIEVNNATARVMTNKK
`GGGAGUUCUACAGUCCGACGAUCCUGCUCCUCAGUAGCAGGGCCUGGCCAGGCCCCUGCUGUUCUCAGCCUCAGUUUGCCAUCUAUGAAAUGAGGUGGACCCCUCUCCAUAGCCCUUGGGUGCCAGCUCAGUGUGGAAUUCUCGGGUGCCAA` — result for “RBNS enrichment (R)”: 0.223.
`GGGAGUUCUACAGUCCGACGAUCAUGAGAGAAAUAUAUUUACAAAUGCUUUAUUCUCUUCUUUAAUAAAAAGUGCACCGGUAUUCUAGAAGUCCAAGUGACCCUGGGUCUAUCGUUUCGCCUCCGAGUCUCACUGGAAUUCUCGGGUGCCAA` — result for “RBNS enrichment (R)”: 0.671.
For `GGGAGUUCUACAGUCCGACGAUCUGGGCACUCGGCAUUUUGACACAUGUCCUGUCAAAAGGCCAGAGUCCCCAGUGUCCCCUCCCCUCCAUCUCUCUUCCCCAUAGACCCCAUAACCCCAGACCAAAGAGGUUUGGAAUUCUCGGGUGCCAA`, “RBNS enrichment (R)” read 0.514.
For `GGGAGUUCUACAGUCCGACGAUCCAAUCCAGGCUCCAGCACCCCUCUGCAGACUACACAGGGGGUCAGUGUGUGUGUGUGACUAGACCUCUCAUUUUAAGCUCUAGUCGUAGCACUUUUUCAGAGUCUCCUAGUGGAAUUCUCGGGUGCCAA`, “RBNS enrichment (R)” read 0.39.
`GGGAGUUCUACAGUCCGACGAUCCUUCUAUCAAAUACCUUAUUUUACCUUACAGAUAUUUGUUGCACAGGCAGAUACUGCUGUAUUUAGACAUUUCUAUUUCAGUUCAUUAAAAACUGCAAAACCAAUCUGUAUGGAAUUCUCGGGUGCCAA` — result for “RBNS enrichment (R)”: 0.382.
`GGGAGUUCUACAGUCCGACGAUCGAUUCAGGGACAAGUUGAAAGGCACUGAAACUGUGUUGAAGCCAGAUGAGUAAUUAUAAGUAACUGUAAUCGGUAGGGAGACAUGUUUUAACCUGGAUAUGUUAGAAAAGUGGAAUUCUCGGGUGCCAA` — result for “RBNS enrichment (R)”: 0.352.
`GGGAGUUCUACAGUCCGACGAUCCUCCCUGGUGUGGUCAGCCUCUCUCACACAAGGAGGAACUUGGGUGAAGGCUGAGUGUGAGGCACCUGAAGUUUCCCUGCGGAGUCGAUAAAUUAGCAGAACCACAUCCCUGGAAUUCUCGGGUGCCAA` — result for “RBNS enrichment (R)”: 1.01.

Sample 3
Target: Histone acetyltransferase KAT6A, both winged helices, GST fusion (KAT6A, Homo sapiens, UniProt Q92794, residues 1-181)
Technique: protein binding microarray
Form: double-stranded DNA, one strand shown
Medium: in vitro
Tested at: not given
Setting: 8-mer, flanks averaged, mean of 2 arrays, mostly near background
Relative to: not given
Direction: higher = stronger binding
Target sequence (chain): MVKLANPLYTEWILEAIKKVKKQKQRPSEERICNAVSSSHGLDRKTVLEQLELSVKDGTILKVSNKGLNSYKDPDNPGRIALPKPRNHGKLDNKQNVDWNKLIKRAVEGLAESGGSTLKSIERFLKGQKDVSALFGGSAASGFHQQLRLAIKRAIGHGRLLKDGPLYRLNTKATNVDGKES
For `CACAAGCC`, the E-score was -0.0321.
`AAGGACGC` gave an E-score of 0.0482.
With `CTATGTAC` the E-score was -0.203.
`CCCTGATC` has an E-score of -0.0721.
`GTCCTCAC` gave an E-score of -0.0905.
`AACATTTC` has an E-score of -0.112.
`TGCGCGAA` has an E-score of 0.28.
`CACAAATG` gave an E-score of -0.155.
For `ATCGTGAA`, the E-score was -0.00822.
`CCTTTCCG` has an E-score of 0.167.
`AGATTGGC` has an E-score of -0.134.
With `ACGTCGAA` the E-score was -0.0126.
With `CCATTAGG` the E-score was -0.102.

Sample 4
Target: PABPC1L2, full length, GST fusion (mouse, UniProt A0ABA7IW68)
Technique: RNAcompete
Form: RNA
Medium: in vitro
Tested at: 20 nM
Setting: 7-mer, probes averaged, single round
Relative to: mean of 7-mers
Direction: higher = stronger binding
Target sequence (chain): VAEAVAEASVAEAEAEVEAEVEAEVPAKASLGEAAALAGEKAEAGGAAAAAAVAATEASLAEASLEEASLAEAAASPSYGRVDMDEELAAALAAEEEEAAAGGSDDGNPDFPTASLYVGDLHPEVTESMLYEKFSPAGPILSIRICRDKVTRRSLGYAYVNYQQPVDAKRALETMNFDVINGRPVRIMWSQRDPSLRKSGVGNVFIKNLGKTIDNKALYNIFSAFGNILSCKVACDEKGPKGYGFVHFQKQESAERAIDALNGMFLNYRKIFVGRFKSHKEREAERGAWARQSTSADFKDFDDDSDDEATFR
`AAUUCUU` gave a 7-mer Z-score of 0.00617.
`UUUACCC` has a 7-mer Z-score of -0.191.
With `CGCGUAG` the 7-mer Z-score was -0.238.
`UCUCAGC` has a 7-mer Z-score of -0.338.
For `CAUGUGC`, the 7-mer Z-score was -0.132.
With `AUGGUCU` the 7-mer Z-score was -0.231.
`AAAGCAG` has a 7-mer Z-score of 1.42.
The 7-mer Z-score of `AUGCAUG` is reported as -0.141.

Excerpt of the above (sample 2):
`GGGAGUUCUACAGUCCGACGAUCAUGAGAGAAAUAUAUUUACAAAUGCUUUAUUCUCUUCUUUAAUAAAAAGUGCACCGGUAUUCUAGAAGUCCAAGUGACCCUGGGUCUAUCGUUUCGCCUCCGAGUCUCACUGGAAUUCUCGGGUGCCAA` — result for “RBNS enrichment (R)”: 0.671.
For `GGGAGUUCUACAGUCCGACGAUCUGGGCACUCGGCAUUUUGACACAUGUCCUGUCAAAAGGCCAGAGUCCCCAGUGUCCCCUCCCCUCCAUCUCUCUUCCCCAUAGACCCCAUAACCCCAGACCAAAGAGGUUUGGAAUUCUCGGGUGCCAA`, “RBNS enrichment (R)” read 0.514.
For `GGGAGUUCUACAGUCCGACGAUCCAAUCCAGGCUCCAGCACCCCUCUGCAGACUACACAGGGGGUCAGUGUGUGUGUGUGACUAGACCUCUCAUUUUAAGCUCUAGUCGUAGCACUUUUUCAGAGUCUCCUAGUGGAAUUCUCGGGUGCCAA`, “RBNS enrichment (R)” read 0.39.
`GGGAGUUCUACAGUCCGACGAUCCUUCUAUCAAAUACCUUAUUUUACCUUACAGAUAUUUGUUGCACAGGCAGAUACUGCUGUAUUUAGACAUUUCUAUUUCAGUUCAUUAAAAACUGCAAAACCAAUCUGUAUGGAAUUCUCGGGUGCCAA` — result for “RBNS enrichment (R)”: 0.382.
